Measured values from different studies.
“And” joins repeats or separate records; there may be more than shown.
B1: PRPF19 (human); sequence looked up; chain SLICSISNEVPEHPCVSPVSNHVYERRLIEKYIAENGTDPINNQPLSEEQLIDIKVAHPIRPKPPSATSIPAILKALQDEWDAVMLHSFTLRQQLQTTRQELSHALYQHDAACRVIARLTKEVTAAREALATLKPQAGLIVPQAVPSSQPSVVGAGEPMDLGELVGMTPEIIQKLQDKATVLTTERKKRGKTVPEELVKPEELSKYRQVASHVGLHSASIPGILALDLCPSDTNKILTGGADKNVVVFDKSSEQILATLKGHTKKVTSVVFHPSQDLVFSASPDATIRIWSVPNASCVQVVRAHESAVTGLSLHATGDYLLSSSDDQYWAFSDIQTGRVLTKVTDETSGCSLTCAQFHPDGLIFGTGTMDSQIKIWDLKERTNVANFPGHSGPITSIAFSENGYYLATAADDSSVKLWDLRKLKNFKTLQLDNNFEVKSLIFDQSGTYLALGGTDVQIYICKQWTEILHFTEHSGLTTGVAFGHHAKFIASTGMDRSLKFYSL
B2: human 4F2hc (SLC3A2); sequence looked up; chain MELQPPEASIAVVSIPRQLPGSHSEAGVQGLSAGDDSELGSHCVAQTGLELLASGDPLPSASQNAEMIETGSDCVTQAGLQLLASSDPPALASKNAEVTGTMSQDTEVDMKEVELNELEPEKQPMNAASGAAMSLAGAEKNGLVKIKVAEDEAEAAAAAKFTGLSKEELLKVAGSPGWVRTRWALLLLFWLGWLGMLAGAVVIIVRAPRCRELPAQKWWHTGALYRIGDLQAFQGHGAGNLAGLKGRLDYLSSLKVKGLVLGPIHKNQKDDVAQTDLLQIDPNFGSKEDFDSLLQSAKKKSIRVILDLTPNYRGENSWFSTQVDTVATKVKDALEFWLQAGVDGFQVRDIENLKDASSFLAEWQNITKGFSEDRLLIAGTNSSDLQQILSLLESNKDLLLTSSYLSDSGSTGEHTKSLVTQYLNATGNRWCSWSLSQARLLTSFLPAQLLRLYQLMLFTLPGTPVFSYGDEIGLDAAALPGQPMEAPVMLWDESSFPDIPGAVSANMTVKGQSEDPGSLLSLFRRLSDQRSKERSLLHGDFHAFSAGPGLFSYIRHWDQNERFLVVLNFGDVGLSAGLQASDLPASASLPAKADLLLSTQPGREEGSPLELERLKLEPHEGLLLRFPYAA
Chain of UniProt Q64663 (whole entry, unmodified, looked up): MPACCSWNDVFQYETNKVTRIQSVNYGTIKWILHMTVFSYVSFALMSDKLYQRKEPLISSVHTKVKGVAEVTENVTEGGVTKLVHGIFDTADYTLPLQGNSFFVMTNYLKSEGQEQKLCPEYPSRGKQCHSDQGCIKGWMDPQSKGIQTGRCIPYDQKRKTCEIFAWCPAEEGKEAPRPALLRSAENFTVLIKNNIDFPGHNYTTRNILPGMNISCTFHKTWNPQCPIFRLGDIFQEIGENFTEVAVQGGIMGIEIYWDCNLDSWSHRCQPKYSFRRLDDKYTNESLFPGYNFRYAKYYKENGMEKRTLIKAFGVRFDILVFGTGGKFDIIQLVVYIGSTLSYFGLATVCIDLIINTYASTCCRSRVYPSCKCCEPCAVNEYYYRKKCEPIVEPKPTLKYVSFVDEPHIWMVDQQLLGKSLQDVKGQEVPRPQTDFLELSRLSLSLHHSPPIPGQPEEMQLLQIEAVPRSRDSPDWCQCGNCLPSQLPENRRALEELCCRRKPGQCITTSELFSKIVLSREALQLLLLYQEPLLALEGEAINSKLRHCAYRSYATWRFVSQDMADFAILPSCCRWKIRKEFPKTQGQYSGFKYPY

| Substance | tested on | assay | test system | conditions | scale | measurement | result |
| --- | --- | --- | --- | --- | --- | --- | --- |
| caspofungin | – | – | adult ICU patients, mITT, serum | dose not given, EOT | – | bilirubin | 18.6 µmol/L |
| VMRLQSETSV | construct, MBP fusion, human SCRIB, PDZ 3-4 | automated holdup | peptide, crude extract | concentration not given, uncorrected, unit not given | baseline: biotin control resin, higher = stronger binding | binding intensity | 0.477 |
| FGB (Homo sapiens, UniProt P02675) | BSN (Homo sapiens, UniProt Q9UPA5) | cross-linking MS | – | added: DSSO | – | cross-linked residues | K77 to K1284 |
| heparin sodium | – | – | human | intravenous infusion, 8 IU/kg/h, day 1 to 6 | – | PT AUEC | 1830 h·s |
| human desmoplakin | PP6C (human) | co-immunoprecipitation, IP-MS | CYB5R4 knockout cells | concentration not given | baseline: CYB5R4 knockout over parental | log2 fold change | 0.7 |
| VVVGAAGVGK | HLA-A*11:01 peptide-β2M single-chain trimer | western blot, refers to: pMHC-I | peptide, 293T cells | 18 h, unit not given, added: 100 µg/mL cycloheximide | baseline: time zero | remaining protein | 0.759 and 0.754 and 0.751 |
| FNA / CGLSGLGVA-NH2 ([18F]FNA-labelled, C-amide) | – | ex vivo gamma counting | peptide, glioblastoma mouse model, urine | 60 min post injection, added: 500-fold excess CooP blocking | – | tissue uptake | 437 %ID/g |
| GSGAGKETRV | construct, MBP fusion, human SCRIB, PDZ 3-4 | automated holdup | peptide, crude extract | concentration not given, uncorrected, unit not given | baseline: biotin control resin, higher = stronger binding | binding intensity | 0.265 |
| BzATP | P2X purinoceptor 7 (P2rx7, Rattus norvegicus, UniProt Q64663, I214A/R125A) | ion current, agonist, two-electrode voltage clamp | Xenopus laevis oocytes | 11 µM | baseline: highest concentration response | normalized current | 0.38 and 0.3 and 0.37 |
| colistin | Pseudomonas aeruginosa | – | PA1039 PER-producing isolate | – | – | MIC | 2 µg/mL |
| human alpha-actinin-2 | PP6C (human) | co-immunoprecipitation, IP-MS | CYB5R4 knockout cells | concentration not given | baseline: CYB5R4 knockout over parental | log2 fold change | -0.36 |
| FGA (Homo sapiens, UniProt P02671) | MTCL1 (Homo sapiens, UniProt Q9Y4B5) | cross-linking MS | – | added: DSSO | – | cross-linked residues | K476 to K445 |
| B1 (PRPF19) | CYB5R4 knockout human cells | PP6 interaction, 3xFLAG-PP6C IP-MS | – | concentration not given | baseline: CYB5R4 KO over parental | log2 fold change | -0.25 |
| 11-deoxycorticosterone | CYP11B2 (human) | substrate binding, stopped-flow kinetic modelling | – | 4-state branched induced-fit model, added: no adrenodoxin | – | rate constant k2 | 80.7 min⁻¹ |
| TASPAKETSF | construct, MBP fusion, human SCRIB, PDZ 3-4 | automated holdup | peptide, crude extract | concentration not given, corrected by standard peak, unit not given | baseline: biotin control resin, higher = stronger binding | binding intensity | 0.731 |
| Teicoplanin | – | ultrafiltration | – | low QC | – | ultrafiltrate solubility loss | 4.17% |
| Polymyxin B | – | untargeted LC-MS metabolomics, refers to: L-pipecolate | Sprague-Dawley rat, right cerebral cortex | intracerebroventricular, 0.75 mg/kg, 1 h | baseline: NaCl control | log2 fold change | -1.9 |
| B2 (human 4F2hc) | PP6C (human) | co-immunoprecipitation, IP-MS | CYB5R4 knockout cells | concentration not given | baseline: CYB5R4 knockout over parental | log2 fold change | -0.53 |
| GSGAGPETLV | construct, MBP fusion, human SCRIB, PDZ 3-4 | surface plasmon resonance | peptide | concentration not given | higher = stronger binding | normalised SPR binding response | 15.7 normalised RU |
| colistin | Pseudomonas aeruginosa | – | clinical isolate RKI 393/11 | – | – | MIC | ≤ 1 µg/mL |
| difelikefalin | – | – | Japanese haemodialysis patients with pruritus | intravenous, 0.25 µg/kg, 8 weeks | – | PGIC very much improved | 19.7% |
| CTOP | – | RP-HPLC | HALO RP-amide column | 25 µM, formic acid/methanol, 25 min gradient | – | retention time | 14.5 min |
| Peginesatide | UT7/EPO | RT-qPCR, refers to: AREG | – | concentration not given, 90 min | baseline: vehicle | mRNA fold induction | 2.7 fold |
| human Ku80 | PP6C (human) | co-immunoprecipitation, IP-MS | CYB5R4 knockout cells | concentration not given | baseline: CYB5R4 knockout over parental | log2 fold change | -0.5 |
| TCATCCGCTG (PNA, CPP-conjugated) | Salmonella enterica serovar Typhimurium | refers to: CFU | peptide, SL1344, Caenorhabditis elegans infection model, worms | 4 × MIC, 24 h | baseline: untreated | bacterial load reduction | 98.7% |
| human TAF12 | PP6C (human) | co-immunoprecipitation, IP-MS | CYB5R4 knockout cells | concentration not given | baseline: CYB5R4 knockout over parental | log2 fold change | -2.42 |
| epoetin alfa | UT7/EPO | RT-qPCR, refers to: PHLDA1 | – | concentration not given, 90 min, normalized to HPRT1 | baseline: vehicle | mRNA level | 4.1 fold |

Excerpt of the above:
| Substance | tested on | assay | test system | conditions | scale | measurement | result |
| --- | --- | --- | --- | --- | --- | --- | --- |
| difelikefalin | – | – | Japanese haemodialysis patients with pruritus | intravenous, 0.25 µg/kg, 8 weeks | – | PGIC very much improved | 19.7% |
| B1 (PRPF19) | CYB5R4 knockout human cells | PP6 interaction, 3xFLAG-PP6C IP-MS | – | concentration not given | baseline: CYB5R4 KO over parental | log2 fold change | -0.25 |
| heparin sodium | – | – | human | intravenous infusion, 8 IU/kg/h, day 1 to 6 | – | PT AUEC | 1830 h·s |
